Published values collected from several papers.
Lines come from different studies, so protocols differ. “And” joins repeats or separate records; there may be more than shown. Numbers after ± are the reported error.
UCHL1: Ubiquitin carboxyl-terminal hydrolase isozyme L1 (UCHL1, Homo sapiens, UniProt P09936)
Voltage-dependent P/Q-type calcium channel subunit alpha-1A: Voltage-dependent P/Q-type calcium channel subunit alpha-1A (Homo sapiens, UniProt O00555)
ADRA2C: Alpha-2C adrenergic receptor (ADRA2C, Homo sapiens, UniProt P18825)
TOP2B: DNA topoisomerase 2-beta (TOP2B, Homo sapiens, UniProt Q02880)
T1: ssRNA aptamer; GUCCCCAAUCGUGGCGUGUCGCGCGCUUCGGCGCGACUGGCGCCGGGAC
T2: G-quadruplex DNA (Homo sapiens); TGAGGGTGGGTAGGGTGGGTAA
T3: RNA aptamer G41A, 5'-triphosphate, 2',3'-cyclic phosphate; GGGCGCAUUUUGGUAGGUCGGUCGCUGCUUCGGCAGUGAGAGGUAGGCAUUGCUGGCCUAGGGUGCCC

For `CN(CCO)c1cc2sc(/C=C(\C#N)c3ccc(C#N)cc3)cc2s1`, binding read “binds” (T1, ssRNA aptamer; fluorescence turn-on).
Under “log2 fold change”, `Oc1ccccc1-c1n[nH]cc1-c1ccnc2ccccc12` is recorded as 0.08 (Serine/threonine-protein kinase HSL1 (HSL1, Candida albicans, UniProt Q5AG71); kinase binding, MIB/MS competition; Candida albicans lysate; 10 µM; relative to: DMSO, negative = stronger binding).
`COc1cccc2c1OCCC2NS(=O)(=O)c1csnc1C(=O)O` (centres unmarked) gave a remaining activity of 83% (malate dehydrogenase; enzyme activity, inhibitor; 200 µM, pH 7.0, 1% DMSO, aggregation counter-screen).
With `COC(=O)C(C#N)=Cc1cc(CSc2nnc(N)s2)cs1` the labelling was 14.5% (UCHL1; covalent, intact protein LC-MS; 12.5 µM).
`Oc1ccc([C@@H]2c3c(O)cc(O)cc3[C@@H]3c4c(cc(O)c5c4[C@@H]2[C@H](c2ccc(O)cc2)[C@H]5c2cc(O)cc4c2[C@@H](c2cc(O)cc(O)c2)[C@H](c2ccc(O)cc2)O4)O[C@H]3c2ccc(O)cc2)cc1` has a Vmax of 663 ± 80 µmol/min (Alpha-amylase 1A (AMY1A, Homo sapiens, UniProt P0DUB6); enzyme activity; 0.5 µM).
With `CC/C=C(\C)C=O` the conversion was 8% (Uncharacterized protein PH0856 (Pyrococcus horikoshii, UniProt O58586); substrate; pH 9, 30 °C, aerobic, added: NADH).
`C#CCCC1(CC[C@H](NC(=O)NCCCCCCNC(=O)NCCN)C(N)=O)N=N1` — result for “normalized labeling ratio”: 0.221 (Peptidyl-prolyl cis-trans isomerase FKBP1A (FKBP1A, Homo sapiens, UniProt P62942); photoaffinity labeling, in-gel fluorescence, item: Alexa Fluor 647 click label; 10 µM, UV irradiation 365 nm; relative to: probe over FKBP12 signal, higher = more labeling).
The remaining activity of `O=C(O)[C@@H](CNC(=O)[C@@H]1C[C@@H]2CC[C@H]1C21CC1)Oc1ccccc1` is reported as 93% (malate dehydrogenase; enzyme activity, inhibitor; 200 µM, pH 7.0, 1% DMSO, aggregation counter-screen).
For `CC(C)NCC(O)COc1cccc2ccccc12` (centres unmarked), the inhibition was 44% (Voltage-dependent P/Q-type calcium channel subunit alpha-1A; ion current, antagonist; HEK293; 10 µM).
The labelling of `CC#CC(=O)NC1CCN(C(=O)c2cc(Cl)ccc2F)C1` (centres unmarked) is reported as 13% (UCHL1; covalent, intact protein LC-MS; 12.5 µM).
`CCn1ncc2c1-c1cnc(N)c(c1)O[C@H](C)c1cc(F)ccc1-c1nn(C)nc1C2`: “brain bioluminescence signal” ≤ 4% (CD74-ROS1 (CD74/ROS1, Homo sapiens, UniProt P04233+P08922, G2032R); tumour growth; Balb/c nude mice, intracranial CD74-ROS1 xenograft; 3 mg/kg twice daily, day 24; relative to: initial).
The remaining activity of `Cn1ncc(S(=O)(=O)NC(c2ccc(Cl)cc2)c2cccs2)c1C(=O)O` (centres unmarked) is reported as 81% (malate dehydrogenase; enzyme activity, inhibitor; 200 µM, pH 7.0, 1% DMSO, aggregation counter-screen).
With `CN(C)CCNc1nc(-c2cccc(-c3nc(NCCN(C)C)c4ccccc4n3)n2)nc2ccccc12` the IC50 was 0.313 µM (T2, G-quadruplex DNA (Homo sapiens); thiazole orange displacement, competitor, FID; 0.25 µM DNA, pH 7.4, 25 °C, KCl 100 mM, added: thiazole orange 0.50 µM).
`Cc1cc(Oc2ncccc2CN2CCN(c3cccc(Cl)c3)CC2)ccc1-c1c(C)c(=O)[nH]c(=O)n1C` gave a selectivity ratio of 8 (ADRA2C; binding, radioligand binding; added: [3H]rauwolscine; relative to: Ki alpha2A over Ki alpha2C).
With `COc1cc2c(cc1OC)C(=O)C(CC1CCN(Cc3ccccc3)CC1)C2` (centres unmarked) the inhibition was 54% (Voltage-dependent P/Q-type calcium channel subunit alpha-1A; ion current, antagonist; HEK293; 30 µM).
For `CC(Oc1cccc(F)c1F)C(=O)N1CCN(C(=O)CCl)CC1` (centres unmarked), the labelling was 9.82% (UCHL1; covalent, intact protein LC-MS; 12.5 µM).
`CC(=O)O[C@H]1C(=O)[C@@]2(C)[C@H]([C@H](OC(=O)c3ccccc3)[C@]3(O)C[C@H](OC(=O)[C@H](O)[C@@H](NC(=O)c4ccccc4)c4ccccc4)C(C)=C1C3(C)C)[C@]1(OC(C)=O)CO[C@@H]1C[C@@H]2O` has an inhibition of 11% (Voltage-dependent P/Q-type calcium channel subunit alpha-1A; ion current, antagonist; HEK293; 3 µM).
`CC=C(C#N)C(=O)N1CCC[C@@H](n2nc(-c3ccc(Oc4ccccc4)cc3)c3c(N)ncnc32)C1` gave a residence time of 31.8 ± 7.8 min (Tyrosine-protein kinase BTK (BTK, Homo sapiens, UniProt Q06187); fluorescence competition; room temperature).
With `Nc1nc2c(ncn2[C@@H]2O[C@H](COP(=O)(O)OP(=O)(O)OP(=O)(O)O)[C@@H](O)[C@H]2O)c(=O)[nH]1` the Kd was 4.43 µM (T3, RNA aptamer G41A, 5'-triphosphate, 2',3'-cyclic phosphate; ITC).
`COCC(NC(=O)C(C)Cl)c1cccc(C#N)c1` (centres unmarked) gave a labelling of 19% (UCHL1; covalent, intact protein LC-MS; 12.5 µM).
For `C=CC(=O)N1CCC(COCC(=O)N2CCN(c3nc(-c4cnc(N)nc4C(F)F)nc(N4CCOC[C@@H]4C)n3)CC2)CC1`, the remaining binding was 100% (Serine/threonine-protein kinase 25 (STK25, Homo sapiens, UniProt O00506); KINOMEscan; 1 µM).
The inhibition of `CC[C@@H]1[C@H](F)C(=O)N[C@@H]1COc1nccc2cc(C(N)=O)c(OC)cc12` is reported as 18.7% (Serine/threonine-protein kinase tousled-like 2 (TLK2, Homo sapiens, UniProt Q86UE8); ATP-site probe binding, ActivX profiling; THP-1 cell lysate; 0.2 mM, Lys1 site).
For `O=C(O)C1=CCNCC1`, the current density was -44.8 pA/pF and -20.2 pA/pF and -22 pA/pF and -106 pA/pF and -16.1 pA/pF and -54.3 pA/pF (BEST1 (Homo sapiens, UniProt O76090); whole-cell patch clamp; HEK293 transiently expressing channel; concentration not given, membrane potential -80 mV).
`COc1ccc2c3c1O[C@H]1C[C@@H](O)C=C[C@@]31CCN(C)C2` has an IC30 of > 30 µM (Voltage-dependent P/Q-type calcium channel subunit alpha-1A; ion current, antagonist, automated patch clamp).
For `CC(=C/C(=O)O)/C=C/C=C(\C)C1C=C2C(C)(C)CCCC2(C)O1` (centres unmarked), “Pearson correlation coefficient” read 0.72 (Rhodopsin (RHO, Homo sapiens, UniProt P08100, T17M); ER retention, immunostaining co-localization, item: opsin with calnexin; COS-7 transfected T17M; 0.05 µM).
The binding entropy of `CC(=O)N[C@@H](Cc1c[nH]c2ccccc12)C(=O)N[C@@H](CC(=O)O)C(=O)N1CCC[C@H]1C(=O)N1CCC[C@H]1C(=O)N[C@@H](CC(C)C)C(=O)N[C@@H](Cc1c[nH]cn1)C(=O)N[C@@H](CO)C(=O)N[C@H](C(=O)N[C@@H](C)C(N)=O)[C@@H](C)OP(=O)(O)O` is reported as -31.2 cal/(mol·K) (Serine/threonine-protein kinase PLK1 (PLK1, Homo sapiens, UniProt P53350); polo-box domain binding, isothermal titration calorimetry; concentration not given, 25 °C).
With `CC1CCCCN1c1nc(Cl)nc(N2CCCCC2C)n1` (centres unmarked) the labelling was 7.11% (UCHL1; covalent, intact protein LC-MS; 12.5 µM).
`Cc1nc(CSc2nc(SCc3ccc(C(C)C)cc3)nc(=O)[nH]2)cs1` gave a decatenated DNA of 44.5% (TOP2B; decatenation; 31.25 µM, replicate 2).
`C[C@H](NCc1ccc(OCc2ccccc2F)cc1)C(N)=O` has an inhibition of 77% (Voltage-dependent P/Q-type calcium channel subunit alpha-1A; ion current, antagonist; HEK293; 30 µM).
For `Nc1ncnc2c1ncn2[C@@H]1O[C@H](COP(=O)(O)OP(=O)(O)O)[C@@H](O)[C@H]1O`, the ΔH was -0.111 kcal/mol (GUK1 (Homo sapiens, UniProt Q16774); binding, isothermal titration calorimetry; molar ratio 3.506, fitted curve).
For `NCCS(=O)(=O)O`, “normalised MST signal” read 0.0327 (Sodium- and chloride-dependent taurine transporter (SLC6A6, Homo sapiens, UniProt P31641, Y138A); binding, microscale thermophoresis; 3.91 µM, room temperature, added: 50 nM labelled protein; higher = more binding).
For `NC(=O)c1ccc[n+]([C@@H]2O[C@H](COP(=O)([O-])OP(=O)(O)OC[C@H]3O[C@@H](n4cnc5c(NCCNC(=O)CCCCCNC(=O)CCCCCNC(=O)CCCC[C@@H]6SC[C@@H]7NC(=O)N[C@@H]76)ncnc54)[C@H](O)[C@@H]3O)[C@@H](O)[C@H]2O)c1`, the apparent Km was 50 µM (Protein mono-ADP-ribosyltransferase PARP8 (Homo sapiens, UniProt Q8N3A8); substrate, DELFIA auto-modification).
The labelling of `N#CC(=Cc1cccc(F)c1)C(=O)NCCc1ccccc1` is reported as 30.3% (UCHL1; covalent, intact protein LC-MS; 12.5 µM).
With `Nc1ncnc2c1ncn2[C@@H]1O[C@H](COP(=O)(O)OP(=O)(O)OP(=O)(O)O)[C@@H](O)[C@H]1O` the hydrolysis rate was 0.00583 s⁻¹ (Acyl-coenzyme A oxidase acox-1.1 (acox-1.1, Caenorhabditis elegans, UniProt O62140); substrate, HPLC; 200 µM, added: FAD, no acyl-CoA oxidase).
`COCCC(=O)N1CCC(Oc2ccccc2)C1` (centres unmarked) has a fold enrichment of 1.9 (Leucine-rich repeat serine/threonine-protein kinase 2, WD40 domain (LRRK2, Homo sapiens, UniProt Q5S007); binding, affinity selection mass spectrometry; relative to: other proteins in batch).
`CN(C)C(=O)C(CCN1CCC(O)(c2ccc(Cl)cc2)CC1)(c1ccccc1)c1ccccc1` — result for “effective gating valence”: 1.07 ± 0.07 elementary charges (Calcium-activated potassium channel subunit alpha-1, with LRRC26 γ1 subunit (KCNMA1, Homo sapiens, UniProt Q12791); BK current, inside-out patch clamp; excised membrane patch; 10 µM, γ1 coexpressed, individual fits, added: nominally 0 Ca2+ cytosolic).
For `Cc1cc(Oc2ncccc2CN2CCN(c3cccc(Cl)c3Cl)CC2)ccc1-c1c(C)c(=O)[nH]c(=O)n1C`, the selectivity ratio was 5 (ADRA2C; binding, radioligand binding; added: [3H]rauwolscine; relative to: Ki alpha2B over Ki alpha2C).
With `N#CC(=Cc1ccccc1)C(=O)Nc1nncs1` the labelling was 11.9% (UCHL1; covalent, intact protein LC-MS; 12.5 µM).
The inhibition of `CCCN1C[C@H](CSC)C[C@@H]2c3cccc4[nH]cc(c34)C[C@H]21` is reported as 15% (Voltage-dependent P/Q-type calcium channel subunit alpha-1A; ion current, antagonist; HEK293; 10 µM).
With `O=c1nc(SCc2cc(F)cc(C(F)(F)F)c2)nc(SCc2ccc3sccc3c2)[nH]1` the decatenated DNA was 100% (TOP2B; decatenation; 7.8 µM, replicate 2).
`N[C@@H](CCC(=O)O)C(=O)O` has a mean current of 0.6 µA (glc-2 (Caenorhabditis elegans, UniProt Q17328, R340A/R342A/S341A/T283S); two-electrode voltage clamp; Xenopus laevis oocytes).
`COc1cc(-c2cc(C(C)=O)n3ccccc23)c(OC)cc1Cn1ccnc1` has a ΔTm of 5.3 °C (Bromodomain-containing protein 4, BD1 (BRD4, Homo sapiens, UniProt O60885)).
`CCN(c1ccc(NC(=O)CCl)cc1)C(C)C.Cl` gave a labelling of 11.7% (UCHL1; covalent, intact protein LC-MS; 12.5 µM).
For `CCN1CCN(c2cc(N3CCN(CC)CC3)nc(NCCNc3ccnc4cc(Cl)ccc34)n2)CC1`, the activation was 1.2 fold (Vitamin D3 receptor (VDR, Homo sapiens, UniProt P11473); reporter gene, Gal4 hybrid reporter; 20 µM; relative to: vehicle).
For `Cc1cc(-c2ccnc3[nH]cc(F)c23)cc(F)c1[C@@]1(O)[C@H](C)CN(C2CCS(=O)(=O)CC2)C[C@@H]1C`, “probe labelling inhibition” read 8.9% (Serine/threonine-protein kinase LATS1 (LATS1, Homo sapiens, UniProt O95835); ATP/ADP probe binding, KiNativ; HEK293T lysate; 0.1 µM, Lys1 peptide ALYATKTLR).
The selectivity ratio of `Cc1cc(Oc2ncccc2CN2CCN(c3ccc(F)cc3F)CC2)ccc1-c1c(C)c(=O)[nH]c(=O)n1C` is reported as 5 (ADRA2C; binding, radioligand binding; added: [3H]rauwolscine; relative to: Ki alpha2B over Ki alpha2C).
Under “log2 fold change”, `CCN1CCC[C@H]1CNC(=O)c1c(O)c(Cl)cc(Cl)c1OC` is recorded as -0.244 (G protein-coupled receptor 88 (Homo sapiens, UniProt Q9GZN0); β-arrestin recruitment, TANGO luminescence, item: GPR88; concentration not given; relative to: basal luminescence).
